Published values of several laboratories.
Each line is one published result; not all experiments were run side by side. ± marks the error that the study gave.
DDB1/DCAF12: DDB1/DCAF12 (Homo sapiens, UniProt Q16531+Q5T6F0)
UniProt Q16531, sequence (whole entry, looked up): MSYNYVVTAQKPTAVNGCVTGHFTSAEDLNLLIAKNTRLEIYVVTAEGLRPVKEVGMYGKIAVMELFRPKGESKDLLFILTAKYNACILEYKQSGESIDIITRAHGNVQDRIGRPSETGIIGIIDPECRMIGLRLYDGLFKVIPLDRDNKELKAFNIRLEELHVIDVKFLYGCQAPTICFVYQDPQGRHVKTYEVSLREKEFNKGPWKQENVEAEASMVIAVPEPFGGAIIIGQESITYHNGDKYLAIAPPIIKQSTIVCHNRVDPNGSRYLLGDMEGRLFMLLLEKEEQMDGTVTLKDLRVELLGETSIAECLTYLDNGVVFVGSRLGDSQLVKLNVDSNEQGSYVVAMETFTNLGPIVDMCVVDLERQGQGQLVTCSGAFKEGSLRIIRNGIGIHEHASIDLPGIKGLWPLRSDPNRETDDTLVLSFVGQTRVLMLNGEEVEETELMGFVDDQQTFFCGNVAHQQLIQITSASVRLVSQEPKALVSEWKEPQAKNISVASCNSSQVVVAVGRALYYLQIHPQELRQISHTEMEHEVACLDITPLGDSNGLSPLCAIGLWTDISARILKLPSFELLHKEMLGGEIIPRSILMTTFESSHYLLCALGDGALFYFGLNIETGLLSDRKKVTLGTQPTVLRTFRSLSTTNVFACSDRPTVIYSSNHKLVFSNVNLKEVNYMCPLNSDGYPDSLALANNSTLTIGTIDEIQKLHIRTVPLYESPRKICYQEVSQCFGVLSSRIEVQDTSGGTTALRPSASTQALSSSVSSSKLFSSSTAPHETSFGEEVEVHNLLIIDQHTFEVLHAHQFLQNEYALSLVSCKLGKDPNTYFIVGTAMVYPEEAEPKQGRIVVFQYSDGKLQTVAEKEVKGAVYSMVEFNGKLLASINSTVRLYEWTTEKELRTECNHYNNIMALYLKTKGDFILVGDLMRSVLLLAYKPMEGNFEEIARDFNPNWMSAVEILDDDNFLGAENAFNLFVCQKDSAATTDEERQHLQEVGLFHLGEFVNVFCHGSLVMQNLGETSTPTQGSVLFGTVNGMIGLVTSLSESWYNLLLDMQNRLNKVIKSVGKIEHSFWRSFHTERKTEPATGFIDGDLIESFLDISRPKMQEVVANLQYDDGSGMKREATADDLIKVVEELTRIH
UniProt Q5T6F0, sequence (whole entry, looked up): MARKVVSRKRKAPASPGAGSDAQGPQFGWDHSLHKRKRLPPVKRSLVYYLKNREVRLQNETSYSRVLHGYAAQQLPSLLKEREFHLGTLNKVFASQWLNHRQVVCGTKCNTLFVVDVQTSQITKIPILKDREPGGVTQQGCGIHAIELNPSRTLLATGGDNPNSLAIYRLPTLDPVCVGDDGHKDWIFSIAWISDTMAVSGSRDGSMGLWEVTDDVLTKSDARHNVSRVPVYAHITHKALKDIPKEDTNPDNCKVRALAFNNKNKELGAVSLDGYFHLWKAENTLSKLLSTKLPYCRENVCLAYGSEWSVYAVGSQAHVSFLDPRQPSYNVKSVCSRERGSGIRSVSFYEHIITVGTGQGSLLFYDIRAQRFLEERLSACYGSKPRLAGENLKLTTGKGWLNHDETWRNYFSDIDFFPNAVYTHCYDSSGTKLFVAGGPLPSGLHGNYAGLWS
Genome polyprotein NS2B-NS3 protease: Genome polyprotein, NS2B-NS3 protease (ZIKV, UniProt A0A024B7W1)
Tripartite terminase subunit 3 C-terminal nuclease domain: Tripartite terminase subunit 3, C-terminal nuclease domain (Human betaherpesvirus 5, UniProt P16732)
UniProt P16732, sequence (whole entry, looked up): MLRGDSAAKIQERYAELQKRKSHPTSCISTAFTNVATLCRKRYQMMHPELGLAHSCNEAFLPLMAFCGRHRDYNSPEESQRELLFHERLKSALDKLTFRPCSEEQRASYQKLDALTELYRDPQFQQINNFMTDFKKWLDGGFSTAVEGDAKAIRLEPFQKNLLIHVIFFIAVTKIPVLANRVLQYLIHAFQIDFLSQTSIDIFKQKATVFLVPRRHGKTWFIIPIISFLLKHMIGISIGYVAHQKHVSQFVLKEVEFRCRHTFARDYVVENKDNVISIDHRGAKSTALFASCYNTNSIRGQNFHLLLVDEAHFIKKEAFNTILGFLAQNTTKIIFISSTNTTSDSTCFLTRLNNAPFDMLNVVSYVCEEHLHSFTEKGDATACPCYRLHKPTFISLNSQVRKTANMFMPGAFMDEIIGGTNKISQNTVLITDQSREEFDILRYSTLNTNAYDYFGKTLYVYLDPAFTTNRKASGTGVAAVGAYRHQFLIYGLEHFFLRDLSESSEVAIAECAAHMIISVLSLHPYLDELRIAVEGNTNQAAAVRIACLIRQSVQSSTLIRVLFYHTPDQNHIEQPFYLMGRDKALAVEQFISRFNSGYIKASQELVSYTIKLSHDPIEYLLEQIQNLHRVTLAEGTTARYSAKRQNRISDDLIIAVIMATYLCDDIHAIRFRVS
UniProt O94782, sequence (whole entry, looked up): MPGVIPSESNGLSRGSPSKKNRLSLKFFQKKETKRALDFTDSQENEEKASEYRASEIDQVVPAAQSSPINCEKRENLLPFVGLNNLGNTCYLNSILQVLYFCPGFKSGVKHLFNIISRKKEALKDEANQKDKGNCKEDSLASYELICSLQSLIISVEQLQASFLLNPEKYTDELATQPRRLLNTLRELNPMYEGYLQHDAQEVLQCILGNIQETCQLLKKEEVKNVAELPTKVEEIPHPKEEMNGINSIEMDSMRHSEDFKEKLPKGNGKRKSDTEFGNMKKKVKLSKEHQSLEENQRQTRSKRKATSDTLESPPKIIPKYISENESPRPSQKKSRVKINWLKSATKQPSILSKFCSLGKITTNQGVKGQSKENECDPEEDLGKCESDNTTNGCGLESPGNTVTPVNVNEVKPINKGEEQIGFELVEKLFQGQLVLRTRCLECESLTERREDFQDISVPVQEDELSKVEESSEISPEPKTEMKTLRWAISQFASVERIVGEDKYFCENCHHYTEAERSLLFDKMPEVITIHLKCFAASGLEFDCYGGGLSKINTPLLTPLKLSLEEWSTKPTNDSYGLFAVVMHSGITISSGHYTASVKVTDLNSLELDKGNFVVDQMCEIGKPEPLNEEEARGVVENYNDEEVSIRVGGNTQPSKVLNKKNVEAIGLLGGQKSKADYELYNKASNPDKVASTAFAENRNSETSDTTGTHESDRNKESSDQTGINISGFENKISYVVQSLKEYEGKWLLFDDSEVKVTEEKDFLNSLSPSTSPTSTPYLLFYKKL
UniProt O15357, sequence (whole entry, looked up): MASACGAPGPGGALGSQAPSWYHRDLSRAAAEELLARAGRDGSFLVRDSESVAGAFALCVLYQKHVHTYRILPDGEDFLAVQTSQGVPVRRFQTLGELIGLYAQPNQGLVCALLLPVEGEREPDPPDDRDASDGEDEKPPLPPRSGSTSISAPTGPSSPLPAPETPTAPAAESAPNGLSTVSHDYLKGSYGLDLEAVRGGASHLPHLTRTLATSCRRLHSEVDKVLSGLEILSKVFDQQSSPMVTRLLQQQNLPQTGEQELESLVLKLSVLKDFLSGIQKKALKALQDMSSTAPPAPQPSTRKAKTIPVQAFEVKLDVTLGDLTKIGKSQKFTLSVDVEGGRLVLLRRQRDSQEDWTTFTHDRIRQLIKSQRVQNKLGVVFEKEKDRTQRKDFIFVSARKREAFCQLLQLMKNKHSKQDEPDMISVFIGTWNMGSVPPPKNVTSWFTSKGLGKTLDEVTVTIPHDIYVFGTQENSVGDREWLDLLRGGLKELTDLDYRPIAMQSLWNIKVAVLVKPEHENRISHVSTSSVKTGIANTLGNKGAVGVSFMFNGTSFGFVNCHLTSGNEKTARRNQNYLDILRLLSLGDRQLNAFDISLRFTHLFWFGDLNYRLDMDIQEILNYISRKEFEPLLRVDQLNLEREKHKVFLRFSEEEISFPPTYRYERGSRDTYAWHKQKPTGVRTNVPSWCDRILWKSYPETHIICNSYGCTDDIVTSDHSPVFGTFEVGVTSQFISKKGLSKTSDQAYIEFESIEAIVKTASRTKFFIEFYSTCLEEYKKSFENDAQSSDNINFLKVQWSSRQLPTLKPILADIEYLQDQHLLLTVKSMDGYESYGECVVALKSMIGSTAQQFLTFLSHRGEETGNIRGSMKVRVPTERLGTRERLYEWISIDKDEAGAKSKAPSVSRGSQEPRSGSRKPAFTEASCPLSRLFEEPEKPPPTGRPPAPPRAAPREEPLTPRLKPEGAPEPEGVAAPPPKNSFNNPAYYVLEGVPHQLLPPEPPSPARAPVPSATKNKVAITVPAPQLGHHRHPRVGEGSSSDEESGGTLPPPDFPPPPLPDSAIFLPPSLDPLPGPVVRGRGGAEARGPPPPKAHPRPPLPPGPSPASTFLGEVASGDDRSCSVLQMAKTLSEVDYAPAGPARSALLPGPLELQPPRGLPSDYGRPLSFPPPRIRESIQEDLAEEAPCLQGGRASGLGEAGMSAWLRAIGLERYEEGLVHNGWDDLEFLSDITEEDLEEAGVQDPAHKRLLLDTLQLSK
UniProt O42275, sequence (whole entry, looked up): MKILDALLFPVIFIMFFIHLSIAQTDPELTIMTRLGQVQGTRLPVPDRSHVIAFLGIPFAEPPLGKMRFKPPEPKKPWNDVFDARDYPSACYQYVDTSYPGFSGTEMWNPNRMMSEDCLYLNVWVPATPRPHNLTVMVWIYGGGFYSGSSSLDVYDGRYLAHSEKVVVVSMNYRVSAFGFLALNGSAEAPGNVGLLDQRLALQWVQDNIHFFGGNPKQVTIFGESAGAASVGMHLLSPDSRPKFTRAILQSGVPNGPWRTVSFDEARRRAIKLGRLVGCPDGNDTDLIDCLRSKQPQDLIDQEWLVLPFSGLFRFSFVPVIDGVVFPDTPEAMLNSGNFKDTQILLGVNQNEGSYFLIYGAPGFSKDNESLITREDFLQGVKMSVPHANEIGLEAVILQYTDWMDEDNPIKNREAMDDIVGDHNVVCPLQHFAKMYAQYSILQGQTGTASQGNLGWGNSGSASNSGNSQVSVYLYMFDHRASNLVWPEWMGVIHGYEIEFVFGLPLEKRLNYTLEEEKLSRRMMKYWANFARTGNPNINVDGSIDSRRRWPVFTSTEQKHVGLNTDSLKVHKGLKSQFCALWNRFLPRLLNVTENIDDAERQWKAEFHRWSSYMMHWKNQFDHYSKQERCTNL

SMILES = O=C(O)C(=Cc1ccccc1)CC(P(=O)(O)O)P(=O)(O)O; tested on = ppk (Escherichia coli, UniProt P0A7B1); test = enzyme activity, inhibitor; quantity = IC50; result = 752 µM
SMILES = Cc1c(Cc2cccc(N(C)S(=O)(=O)CCCNCCCCCC(=O)N3CCN(c4nc(N5CCOCC5)nc(-n5c(C(F)F)nc6ccccc65)n4)CC3)c2)c(=O)oc2cc(OC(=O)N(C)C)ccc12; tested on = ERK; test = kinase activity, inhibitor; quantity = IC50; result = > 10 µM
SMILES = COc1cc2c(cc1OCC1CC1)NC(=O)C21CCN(c2cc(NC3CC3)ncn2)CC1; tested on = Vero-E6; test = CellTiter-Glo ATP; conditions = 72 h, first round 5-point; how to read = relative to: DMSO 0%, hyamine -100%, more negative, more toxic; quantity = maximum response; result = 0.236%
SMILES = CNC(C)Cc1ccc2nsnc2c1 (stereo not drawn); tested on = Sodium-dependent noradrenaline transporter (SLC6A2, Homo sapiens, UniProt P23975); quantity = IC50; result = 5.6 ± 1.8 µM
SMILES = COc1cc(Nc2ncc(F)c(Nc3ccc4c(n3)NC(=O)C(C)(C)O4)n2)cc(OC)c1OC; tested on = melatonin receptor (non-selective); quantity = IC50; result = > 10 µM
SMILES = CN1C(=O)[C@@H](Cc2ccc(O)cc2)NC(=O)CNC(=O)[C@H](Cc2ccc3ccccc3c2)NC(=O)[C@H](CCCNC(=N)N)NC(=O)[C@H]1CCCNC(=O)CN1CCN(CC(=O)O)CCN(CC(=O)O)CCN(CC(=O)O)CC1; tested on = C-X-C chemokine receptor type 4 (CXCR4, Homo sapiens, UniProt P61073); quantity = IC50; result = > 1 µM
SMILES = C[C@H]1CN(c2n[nH]c3nc(N[C@H]4CC[C@H](NS(=O)(=O)CCC(F)(F)F)CC4)ncc23)CCO1; tested on = MICOS complex subunit MIC19 (Homo sapiens, UniProt Q9NX63); test = biochemical; quantity = IC50; result = ≥ 20 µM
SMILES = NCC(=O)N[C@@H](CCC(=O)O)C(=O)N[C@@H](CO)C(=O)N[C@@H](CCC(=O)O)C(=O)N[C@@H](CCC(=O)O)C(=O)O; tested on = DDB1/DCAF12; test = binding, TR-FRET competition; quantity = IC50; result = 24.6 µM
SMILES = O=C(O)C[C@H](NC(=O)[C@H](CC(=O)O)NC(=O)[C@H](CC(=O)O)NC(=O)[C@H](CC(=O)O)NC(=O)[C@H](CC(=O)O)NC(=O)[C@H](CC(=O)O)NC(=O)[C@H](CC(=O)O)NC(=O)[C@H](CC(=O)O)NC(=O)[C@H](CC(=O)O)NC(=O)[C@H](CC(=O)O)NC(=O)[C@H](CC(=O)O)NC(=O)[C@H](CCCCNC(=O)c1ccc(C(=O)NCCOCCOB2BBBBBB3BBBB3B2)cc1)NC(=O)CN1CCN(CC(=O)O)CCN(CC(=O)O)CCN(CC(=O)O)CC1)C(=O)O [gallium-67 labelled]; test system = ddY male mice, large intestine; conditions = intravenous, 37 kBq, 1 h; quantity = tissue uptake; result = 0.11 %ID/g
SMILES = CCC(C(=O)Nc1cc(NC2CCNCC2)ccc1C)n1cc(Cl)cc2nc(SCc3ccc(F)cc3)nc1-2 (stereo not drawn); tested on = Ubiquitin carboxyl-terminal hydrolase 1 (USP1, Homo sapiens, UniProt O94782); test = enzyme activity; quantity = IC50; result = > 100 µM
SMILES = Cc1ccc2sc(NC(=O)c3cc4ccccc4o3)nc2n1; tested on = Genome polyprotein NS2B-NS3 protease; test = inhibitor; quantity = IC50; result = 1.1 ± 0.1 µM
SMILES = CCN(CC)CCCNC(=O)CSc1c2c(nc3cc(Cl)ccc13)CCCC2; tested on = Vero-E6; test = CellTiter-Glo ATP; conditions = 72 h, second round 5-point; how to read = relative to: DMSO 0%, hyamine -100%, more negative, more toxic; quantity = maximum response; result = 0.6%
SMILES = CC[C@H](C)[C@H](NC(=O)[C@@H](NC(=O)[C@@H](N)CCC(N)=O)C(C)C)C(=O)N[C@H](C(=O)N[C@H](C(=O)NCC(=O)N[C@@H](CC(N)=O)C(=O)O)[C@@H](C)CC)[C@@H](C)O; tested on = Protein cereblon, with DDB1 (CRBN, Homo sapiens, UniProt Q96SW2); test = binding, ligand, TR-FRET displacement; quantity = IC50; result = 3.43 µM
SMILES = CCCC[C@H](NC(=O)[C@H](C[SeH])NC(=O)CNC(=O)[C@H](CCCCN)NC(=O)[C@H](CCCNC(=N)N)NC(=O)[C@H](CCCCN)NC(=O)[C@H](C[SeH])NC(=O)CNC(=O)[C@H](CCCCN)NC(=O)[C@H](CCCNC(=N)N)NC(=O)[C@H](CCCCN)NC(=O)[C@H](C[SeH])NC(=O)[C@H](C)NC(C)=O)C(N)=O; tested on = Genome polyprotein NS2B-NS3 protease; test = enzyme activity, inhibitor; test system = Zika virus; conditions = 10 min preincubation, pH 8.5, 20% glycerol, added: 5 µM Bz-Nle-Lys-Lys-Arg-AMC; quantity = IC50; result = 0.067 µM
SMILES = O=c1[nH]c2cc(-c3ccc(Cl)cc3)sc2c(=O)n1O; tested on = Tripartite terminase subunit 3 C-terminal nuclease domain; test = inhibitor; test system = human cytomegalovirus; quantity = IC50; result = 6 ± 3.8 µM
SMILES = Nc1c2c(nc3c1C(c1ccc(Cl)c(Cl)c1)c1ccc(OCC(=O)c4ccc(Cl)cc4)cc1O3)CCCC2 (stereo not drawn); tested on = Amyloid-beta precursor protein (APP, Homo sapiens, UniProt P05067); test = Aβ42 self-aggregation, inhibitor, thioflavin T fluorescence; quantity = IC50; result = 0.746 µM
SMILES = Sc1nc2ccccc2[nH]1; tested on = Histone acetyltransferase RTT109, with Vps75 (Saccharomyces cerevisiae, UniProt Q07794); test = enzyme activity, inhibitor, HTS, CPM-based, dose response; quantity = IC50; result = > 125 µM
SMILES = N=C(N)NCC(=O)O; tested on = Protein-arginine-phosphatase (ywlE, Bacillus subtilis, UniProt P39155); quantity = IC50; result = > 1000 µM
SMILES = Cc1cc2cc(n1)-c1cnn(C)c1OCCC[C@@H](C)Cn1c(nc3ccc(CN4CCN(C)CC4)cc31)NC2=O; tested on = Receptor tyrosine-protein kinase erbB-2 (ERBB2, Homo sapiens, UniProt P04626); quantity = IC50; result = > 0.1 µM
SMILES = CC[C@H](C)[C@H](NC(=O)[C@@H](N)CC(=O)O)C(=O)N[C@@H](CCCNC(=N)N)C(=O)N[C@@H](CCCCN)C(=O)N1CCC[C@H]1C(=O)NCC(=O)N[C@@H](CCC(=O)O)C(=O)N[C@@H](CO)C(=O)N[C@@H](CCC(=O)O)C(=O)N[C@H](C(=O)O)[C@@H](C)O; tested on = DDB1/DCAF12; test = binding, TR-FRET competition; quantity = IC50; result = 47.2 µM
SMILES = O=P(O)(O)Oc1cc(OP(=O)(O)O)c(-c2cc(OP(=O)(O)O)c(OP(=O)(O)O)cc2OP(=O)(O)O)cc1OP(=O)(O)O; tested on = Phosphatidylinositol 3,4,5-trisphosphate 5-phosphatase 2 (INPPL1, Homo sapiens, UniProt O15357); test = enzyme activity, inhibitor, malachite green phosphate; conditions = 5 min, 30 °C, His-tagged enzyme, added: Ins(1,3,4,5)P4 100 µM; quantity = IC50; result = 19.5 ± 3.1 µM
SMILES = O=c1[nH]c2ccsc2c(=O)n1O; tested on = Tripartite terminase subunit 3 C-terminal nuclease domain; test = endonuclease activity, inhibitor; conditions = added: dsDNA substrate; quantity = IC50; result = 0.081 ± 0.04 µM
SMILES = CC(C)[C@@H]1NC(=O)[C@H](Cc2ccccc2)NC(=O)[C@@H]2NC(=O)[C@H](Cc3ccccc3)NC(=O)[C@@H]3CCCN3C(=O)CNC(=O)[C@H](Cc3ccccc3)NC(=O)[C@@H]3CNCCCC[C@@H](C(=O)O)NC(=O)[C@@H]4NC(=O)[C@H](CC(N)=O)NC(=O)CNC(=O)[C@H]([C@@H](O)C(=O)O)NC(=O)[C@H](CSC[C@@H](NC(=O)[C@H](CCC(N)=O)NC(=O)[C@H](CCCCNC(=O)c5ccc(NN)nc5)NC(=O)[C@@H](N)CS[C@H]4C)C(=O)N[C@@H](CS[C@H]2C)C(=O)N3)NC1=O [technetium-99m labelled]; test system = rat 45 min ischemia, 2 h reperfusion, normal myocardium; quantity = half-life; result = 14.6 min
SMILES = Cc1csc2c(=O)n(O)c(=O)[nH]c12; tested on = Tripartite terminase subunit 3 C-terminal nuclease domain; test = endonuclease activity, inhibitor; conditions = added: dsDNA substrate; quantity = IC50; result = 0.76 ± 0.04 µM
SMILES = Cc1cc(Nc2ccc3ccccc3c2)n2ncnc2n1; tested on = MT-CYB, bc1 complex (Plasmodium falciparum, UniProt Q02768); test = enzyme activity, inhibitor; quantity = IC50; result = > 1 µM
SMILES = COc1ncccc1-c1cnn2ccc(N3CCN(C(=O)OC(C)C)CC3)nc12; tested on = Estrogen receptor (ESR1, Homo sapiens, UniProt P03372); test = liability screen; quantity = IC50; result = > 150 µM
SMILES = O=c1c(O)c(-c2cc(O)c(O)c(O)c2)oc2cc(O)cc(O)c12; tested on = Genome polyprotein NS2B-NS3 protease; test = inhibitor; quantity = IC50; result = 104 µM
SMILES = NCCOCC(=O)N1CCCC(C(=O)NCc2nc(-c3ccc(-c4ccc(F)cc4)cc3)cs2)C1 (stereo not drawn); tested on = 20S proteasome (Plasmodium falciparum, UniProt A0A5K1K7U1+Q8I261+Q8IJT1); conditions = Succ-LLVY-AMC 0.5 µM, added: WLW-vs 3 µM; quantity = IC50; result = 0.079 µM
SMILES = CCOP(=O)(OCC)SC[S+]([O-])CC (stereo not drawn); tested on = Acetylcholinesterase (ache, Electrophorus electricus, UniProt O42275); test = enzyme activity, inhibitor; quantity = IC50; result = 1.4 ± 0.3 µM
SMILES = CN(C)C(=O)C(CCN1CCC(O)(c2ccc(Cl)cc2)CC1)(c1ccccc1)c1ccccc1; tested on = Calcium-activated potassium channel subunit alpha-1, with LRRC26 γ1 subunit (KCNMA1, Homo sapiens, UniProt Q12791); test = BK channel conductance, inhibitor, inside-out patch clamp; conditions = BKα/γ1, Vm 10 mV, nominally Ca2+-free; quantity = IC50; result = 7.38 ± 2.4 µM

Some of these lines once more:
SMILES = CC[C@H](C)[C@H](NC(=O)[C@@H](NC(=O)[C@@H](N)CCC(N)=O)C(C)C)C(=O)N[C@H](C(=O)N[C@H](C(=O)NCC(=O)N[C@@H](CC(N)=O)C(=O)O)[C@@H](C)CC)[C@@H](C)O; tested on = Protein cereblon, with DDB1 (CRBN, Homo sapiens, UniProt Q96SW2); test = binding, ligand, TR-FRET displacement; quantity = IC50; result = 3.43 µM
SMILES = CCCC[C@H](NC(=O)[C@H](C[SeH])NC(=O)CNC(=O)[C@H](CCCCN)NC(=O)[C@H](CCCNC(=N)N)NC(=O)[C@H](CCCCN)NC(=O)[C@H](C[SeH])NC(=O)CNC(=O)[C@H](CCCCN)NC(=O)[C@H](CCCNC(=N)N)NC(=O)[C@H](CCCCN)NC(=O)[C@H](C[SeH])NC(=O)[C@H](C)NC(C)=O)C(N)=O; tested on = Genome polyprotein NS2B-NS3 protease; test = enzyme activity, inhibitor; test system = Zika virus; conditions = 10 min preincubation, pH 8.5, 20% glycerol, added: 5 µM Bz-Nle-Lys-Lys-Arg-AMC; quantity = IC50; result = 0.067 µM
SMILES = O=c1[nH]c2cc(-c3ccc(Cl)cc3)sc2c(=O)n1O; tested on = Tripartite terminase subunit 3 C-terminal nuclease domain; test = inhibitor; test system = human cytomegalovirus; quantity = IC50; result = 6 ± 3.8 µM
SMILES = Nc1c2c(nc3c1C(c1ccc(Cl)c(Cl)c1)c1ccc(OCC(=O)c4ccc(Cl)cc4)cc1O3)CCCC2 (stereo not drawn); tested on = Amyloid-beta precursor protein (APP, Homo sapiens, UniProt P05067); test = Aβ42 self-aggregation, inhibitor, thioflavin T fluorescence; quantity = IC50; result = 0.746 µM
SMILES = Sc1nc2ccccc2[nH]1; tested on = Histone acetyltransferase RTT109, with Vps75 (Saccharomyces cerevisiae, UniProt Q07794); test = enzyme activity, inhibitor, HTS, CPM-based, dose response; quantity = IC50; result = > 125 µM
